Experimental data of several laboratories.
Each line is one published result; not all experiments were run side by side. “And” joins repeats or separate records; there may be more than shown. ± marks the error that the study gave.
uncharacterized protein: uncharacterized protein (Bradysia odoriphaga, UniProt A0A2S0X9G4)
SIGMAR1: Sigma non-opioid intracellular receptor 1 (SIGMAR1, Cavia porcellus, UniProt Q60492)
UniProt Q60492, sequence (whole entry, looked up): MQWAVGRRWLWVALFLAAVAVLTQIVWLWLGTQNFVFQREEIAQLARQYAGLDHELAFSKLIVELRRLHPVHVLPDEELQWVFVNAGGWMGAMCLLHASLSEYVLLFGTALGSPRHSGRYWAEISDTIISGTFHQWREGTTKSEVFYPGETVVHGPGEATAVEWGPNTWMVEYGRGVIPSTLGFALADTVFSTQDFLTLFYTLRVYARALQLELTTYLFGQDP
Alpha-1-acid glycoprotein 2: Alpha-1-acid glycoprotein 2 (Homo sapiens, UniProt P19652)
UniProt P19652, sequence (whole entry, looked up): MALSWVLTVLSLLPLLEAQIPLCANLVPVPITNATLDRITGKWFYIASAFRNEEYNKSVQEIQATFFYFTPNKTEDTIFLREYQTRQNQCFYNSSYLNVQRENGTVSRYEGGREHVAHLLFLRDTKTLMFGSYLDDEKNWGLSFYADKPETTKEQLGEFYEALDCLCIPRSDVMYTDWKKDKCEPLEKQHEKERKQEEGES
MAPT PSP brain aggregates: Microtubule-associated protein tau, PSP brain aggregates (MAPT, Homo sapiens, UniProt P10636)
UniProt P10636, sequence (whole entry, looked up): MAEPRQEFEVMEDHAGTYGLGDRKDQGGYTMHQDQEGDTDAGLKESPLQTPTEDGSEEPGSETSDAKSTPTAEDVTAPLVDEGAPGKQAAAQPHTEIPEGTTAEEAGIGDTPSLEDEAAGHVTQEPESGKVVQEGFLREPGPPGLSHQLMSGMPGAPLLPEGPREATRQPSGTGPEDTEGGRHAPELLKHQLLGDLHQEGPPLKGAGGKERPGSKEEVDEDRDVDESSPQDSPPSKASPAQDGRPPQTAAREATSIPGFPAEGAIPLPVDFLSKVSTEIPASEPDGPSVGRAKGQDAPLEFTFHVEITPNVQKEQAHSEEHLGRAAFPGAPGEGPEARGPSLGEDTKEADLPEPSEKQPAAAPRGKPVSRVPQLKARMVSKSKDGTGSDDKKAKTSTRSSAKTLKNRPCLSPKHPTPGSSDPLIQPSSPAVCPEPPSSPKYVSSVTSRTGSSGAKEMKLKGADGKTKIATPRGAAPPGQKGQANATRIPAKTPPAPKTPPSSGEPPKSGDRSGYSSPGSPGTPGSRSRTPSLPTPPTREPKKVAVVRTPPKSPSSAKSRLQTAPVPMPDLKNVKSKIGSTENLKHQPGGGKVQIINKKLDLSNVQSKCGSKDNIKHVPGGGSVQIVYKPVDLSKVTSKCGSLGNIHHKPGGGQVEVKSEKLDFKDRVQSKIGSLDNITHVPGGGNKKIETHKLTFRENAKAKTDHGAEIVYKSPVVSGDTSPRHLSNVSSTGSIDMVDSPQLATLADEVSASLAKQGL
TMEM97: Sigma intracellular receptor 2 (TMEM97, Homo sapiens, UniProt Q5BJF2)
UniProt Q5BJF2, sequence (whole entry, looked up): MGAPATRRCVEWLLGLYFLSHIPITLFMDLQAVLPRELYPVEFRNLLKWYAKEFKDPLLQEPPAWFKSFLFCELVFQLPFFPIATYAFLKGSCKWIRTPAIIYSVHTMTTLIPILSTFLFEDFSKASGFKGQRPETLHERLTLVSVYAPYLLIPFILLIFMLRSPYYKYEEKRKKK
UniProt Q5NUL3, sequence (whole entry, looked up): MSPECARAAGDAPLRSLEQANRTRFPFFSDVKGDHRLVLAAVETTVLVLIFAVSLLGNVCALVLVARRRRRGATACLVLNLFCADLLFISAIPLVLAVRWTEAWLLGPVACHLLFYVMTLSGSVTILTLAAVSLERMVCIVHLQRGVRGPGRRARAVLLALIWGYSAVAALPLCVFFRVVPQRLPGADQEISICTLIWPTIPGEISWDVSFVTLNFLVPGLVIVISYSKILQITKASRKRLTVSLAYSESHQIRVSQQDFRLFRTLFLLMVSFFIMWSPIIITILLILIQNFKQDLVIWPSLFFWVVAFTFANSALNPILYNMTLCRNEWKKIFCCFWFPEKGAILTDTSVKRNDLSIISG
UniProt O76083, sequence (whole entry, looked up): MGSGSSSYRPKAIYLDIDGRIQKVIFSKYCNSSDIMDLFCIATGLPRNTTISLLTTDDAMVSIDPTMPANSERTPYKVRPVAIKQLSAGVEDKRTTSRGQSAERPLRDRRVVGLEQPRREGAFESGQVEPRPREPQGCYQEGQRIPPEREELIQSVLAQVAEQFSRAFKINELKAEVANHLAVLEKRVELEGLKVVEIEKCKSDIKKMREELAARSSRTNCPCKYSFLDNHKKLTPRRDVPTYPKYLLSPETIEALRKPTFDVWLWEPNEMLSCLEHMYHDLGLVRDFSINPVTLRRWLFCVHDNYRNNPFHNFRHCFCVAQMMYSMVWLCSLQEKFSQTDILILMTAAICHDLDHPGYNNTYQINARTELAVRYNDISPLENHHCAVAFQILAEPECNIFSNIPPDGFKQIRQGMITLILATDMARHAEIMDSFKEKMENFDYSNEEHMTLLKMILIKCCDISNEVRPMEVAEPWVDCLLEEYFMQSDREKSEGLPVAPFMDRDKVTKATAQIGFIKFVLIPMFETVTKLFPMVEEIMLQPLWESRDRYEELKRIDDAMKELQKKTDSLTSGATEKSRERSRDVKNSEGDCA
UniProt P35367, sequence (whole entry, looked up): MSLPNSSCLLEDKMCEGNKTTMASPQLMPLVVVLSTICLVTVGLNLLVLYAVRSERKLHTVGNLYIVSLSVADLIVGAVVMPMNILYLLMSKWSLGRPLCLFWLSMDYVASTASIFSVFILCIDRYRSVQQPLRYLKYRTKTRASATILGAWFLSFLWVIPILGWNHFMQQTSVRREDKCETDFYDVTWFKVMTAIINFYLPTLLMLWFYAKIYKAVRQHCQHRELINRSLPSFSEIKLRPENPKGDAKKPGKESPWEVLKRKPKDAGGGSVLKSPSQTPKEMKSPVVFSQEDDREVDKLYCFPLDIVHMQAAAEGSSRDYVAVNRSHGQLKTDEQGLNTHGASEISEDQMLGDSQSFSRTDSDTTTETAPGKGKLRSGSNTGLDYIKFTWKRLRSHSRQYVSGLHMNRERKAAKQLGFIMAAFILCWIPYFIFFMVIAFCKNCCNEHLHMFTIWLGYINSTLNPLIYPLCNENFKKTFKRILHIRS
UniProt Q96RR4, sequence (whole entry, looked up): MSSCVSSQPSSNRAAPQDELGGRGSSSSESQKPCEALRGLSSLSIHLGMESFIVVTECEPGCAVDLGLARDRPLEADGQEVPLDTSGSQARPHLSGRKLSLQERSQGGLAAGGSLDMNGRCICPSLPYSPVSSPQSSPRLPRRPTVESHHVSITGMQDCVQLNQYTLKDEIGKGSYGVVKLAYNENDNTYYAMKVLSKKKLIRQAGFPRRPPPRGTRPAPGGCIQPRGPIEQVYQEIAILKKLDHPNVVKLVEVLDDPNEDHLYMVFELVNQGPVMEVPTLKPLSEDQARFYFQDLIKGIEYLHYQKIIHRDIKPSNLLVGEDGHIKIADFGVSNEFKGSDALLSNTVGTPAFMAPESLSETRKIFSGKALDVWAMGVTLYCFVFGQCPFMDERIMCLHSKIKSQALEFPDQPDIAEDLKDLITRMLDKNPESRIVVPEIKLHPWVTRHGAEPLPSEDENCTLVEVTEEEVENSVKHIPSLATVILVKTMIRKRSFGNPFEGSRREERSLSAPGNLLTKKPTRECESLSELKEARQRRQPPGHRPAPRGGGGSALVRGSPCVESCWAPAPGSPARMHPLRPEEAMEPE
UniProt P00388, sequence (whole entry, unmodified, looked up): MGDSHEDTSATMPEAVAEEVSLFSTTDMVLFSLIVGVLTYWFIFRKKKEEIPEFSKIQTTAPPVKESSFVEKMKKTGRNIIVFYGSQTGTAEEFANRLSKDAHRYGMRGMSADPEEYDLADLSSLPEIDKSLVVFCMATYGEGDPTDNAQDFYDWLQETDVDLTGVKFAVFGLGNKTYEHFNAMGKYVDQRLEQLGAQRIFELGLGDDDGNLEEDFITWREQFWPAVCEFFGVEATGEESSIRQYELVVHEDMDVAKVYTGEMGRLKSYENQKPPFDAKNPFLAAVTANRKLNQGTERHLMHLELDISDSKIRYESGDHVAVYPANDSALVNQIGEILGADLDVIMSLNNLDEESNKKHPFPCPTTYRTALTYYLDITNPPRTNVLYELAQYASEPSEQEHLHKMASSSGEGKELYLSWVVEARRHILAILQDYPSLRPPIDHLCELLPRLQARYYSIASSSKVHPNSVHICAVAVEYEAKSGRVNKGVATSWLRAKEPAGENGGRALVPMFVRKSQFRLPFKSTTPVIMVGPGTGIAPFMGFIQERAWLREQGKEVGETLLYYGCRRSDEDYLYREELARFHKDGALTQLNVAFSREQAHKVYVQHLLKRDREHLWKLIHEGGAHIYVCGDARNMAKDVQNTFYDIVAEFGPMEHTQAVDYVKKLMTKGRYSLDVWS
UniProt P08684, sequence (whole entry, looked up): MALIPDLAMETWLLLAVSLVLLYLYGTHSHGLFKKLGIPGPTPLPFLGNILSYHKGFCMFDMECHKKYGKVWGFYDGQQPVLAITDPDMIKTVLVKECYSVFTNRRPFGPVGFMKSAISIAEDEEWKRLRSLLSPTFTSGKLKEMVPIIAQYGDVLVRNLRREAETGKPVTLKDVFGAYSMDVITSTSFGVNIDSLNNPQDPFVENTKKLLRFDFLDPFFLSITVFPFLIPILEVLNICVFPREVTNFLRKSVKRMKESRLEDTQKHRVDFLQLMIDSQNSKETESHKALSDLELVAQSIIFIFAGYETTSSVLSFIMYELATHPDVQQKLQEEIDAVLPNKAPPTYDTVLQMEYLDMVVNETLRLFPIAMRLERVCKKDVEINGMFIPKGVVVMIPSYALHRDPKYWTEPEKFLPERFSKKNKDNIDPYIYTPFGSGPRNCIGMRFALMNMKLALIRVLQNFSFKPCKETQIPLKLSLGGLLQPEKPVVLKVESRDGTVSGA

CCCCCCCCCCCC=O
Ki (uncharacterized protein; binding, competitive fluorescence displacement): > 50 µM

CNC(=O)[C@@]12C[C@@H]1[C@@H](n1cnc3c(NC)nc(C#C[c-]4cccc4)nc31)[C@H](O)[C@@H]2O.[Fe+2].c1cc[cH-]c1
Ki (HRH1 (Homo sapiens, UniProt P35367); radioligand binding (PDSP)): 0.085 µM

COc1cc2c(cc1OC)CN(C(C)CCc1ccc(O)cc1)CC2 (centres unmarked)
Ki (SIGMAR1; binding, [3H](+)-pentazocine displacement; guinea pig brain homogenate): 0.108 ± 0.035 µM

COC(=O)C1=C(C)NC(C)=C(C(=O)O[C@H]2CCN(Cc3ccccc3)C2)[C@H]1c1cccc([N+](=O)[O-])c1
Ki (Alpha-1-acid glycoprotein 2; competitive inhibitor, ultrafiltration; 15 min, 37 °C, added: [3H]S-disopyramide): 12.7 µM

Oc1ccccc1-c1n[nH]cc1-c1ccnc2ccccc12
log2 fold change (CDC5 (Candida albicans); kinase binding, MIB/MS competition; Candida albicans lysate; 1 µM; relative to: DMSO): 0.15

CC12CCC(CC1)C(C)(C)O2
Ki (uncharacterized protein; binding, competitive fluorescence displacement): > 50 µM

CSc1ccc2c(c1)N(CCC1CCCCN1C)c1ccccc1S2 (centres unmarked)
Ki (Alpha-1-acid glycoprotein 2; competitive inhibitor, ultrafiltration; 15 min, 37 °C, added: [3H]S-disopyramide): 0.81 µM

Fc1cc(-c2cnc3[nH]c4ccncc4c3c2)ccn1
Ki (MAPT PSP brain aggregates; binding; PSP human brain tissue; added: [3H]PI-2620): < 0.01 µM and 0.0096 µM

C[C@H]1c2nn(C)cc2[C@H]2C[C@@H]1N(Cc1ccccc1)C[C@]2(C)O
Ki (SIGMAR1): 4.2 µM

CCCCCCCCCC=O
Ki (uncharacterized protein; binding, competitive fluorescence displacement): > 50 µM

Cc1ccc([C@H]2C[C@@H]2COc2cc(NCc3nnc(C)s3)nc(C)n2)nc1
Ki (PDE9A (Homo sapiens, UniProt O76083); enzyme activity, inhibitor, IMAP fluorescence polarization; added: cGMP): > 54.6 µM

NC(=O)c1ccc[n+]([C@@H]2O[C@H](COP(=O)(O)OP(=O)(O)OC[C@H]3O[C@@H](n4cnc5c(N)ncnc54)[C@H](OP(=O)(O)O)[C@@H]3O)[C@@H](O)[C@H]2O)c1
Ki (NADPH--cytochrome P450 reductase (Rattus norvegicus, UniProt P00388, del2-56/W677G); cytochrome c reduction, inhibitor; added: NADPH): 4.73 ± 0.5 µM

CC(C)C[C@H](NC(=O)C[C@H](O)[C@H](CC(C)C)NC(=O)[C@H](Cc1c[nH]cn1)NC(=O)CNC(=O)[C@@H](NC(=O)[C@H](C)NC(=O)[C@H](Cc1c[nH]c2ccccc12)NC(=O)[C@H](CCC(N)=O)NC(=O)[C@@H](Cc1ccccc1)NC(=O)COCCOCCNC(=O)CN1CCN(CC(=O)O)CCN(CC(=O)O)CCN(CC(=O)O)CC1)C(C)C)C(N)=O [lutetium-177 labelled]
tissue uptake (female BALB/c nu/nu mice, tumor; intravenous, 50 pmol, 24 h): 5 ± 1 %ID/g

CCCCCCCCNc1cc(=O)[nH]c(=O)[nH]1
inhibition (FFAR4 (Homo sapiens, UniProt Q5NUL3); antagonist, β-arrestin recruitment; CHO cells; 10 µM, added: 4 µM TUG-891): 22 ± 9%

Cn1cc(-c2ccc(-c3cncc(Cl)c3N3CCC4(CCNC4=O)CC3)cc2)cn1
log2 fold change (COLO 205; gene expression, microarray, item: EPAS1 mRNA; concentration not given, 6 h; relative to: untreated cells): 6.58

CCCCCCCCC
Ki (uncharacterized protein; binding, competitive fluorescence displacement): > 50 µM

CC1(C)CCC(c2ccc(Cl)cc2)=C(CN2CCN(c3ccc(C(=O)NS(=O)(=O)c4ccc(N[C@H](CCN5CCOCC5)CSc5ccccc5)c(S(=O)(=O)C(F)(F)F)c4)cc3)CC2)C1
drug secreted with TRL (mouse ileal enteroid monolayers; 50 % saturated solubility, 4 h, basolateral fractions 1-10, added: taurocholate/phosphatidylcholine micelles): 2.8 ± 1.9%

CC(C)C[C@H](NC(=O)C[C@H](O)[C@H](CC(C)C)NC(=O)[C@H](Cc1c[nH]cn1)NC(=O)CNC(=O)[C@@H](NC(=O)[C@H](C)NC(=O)[C@H](Cc1c[nH]c2ccccc12)NC(=O)[C@H](CCC(N)=O)NC(=O)[C@@H](Cc1ccccc1)NC(=O)COCCOCCNC(=O)CCC(C(=O)O)N1CCN(CC(=O)O)CCN(CC(=O)O)CCN(CC(=O)O)CC1)C(C)C)C(N)=O (some centres unmarked) [lutetium-177 labelled]
tissue uptake (BALB/c nu/nu mice, liver; intravenous, 100 pmol, 1 h, added: PA 300 µg): 0.33 ± 0.09 %ID/g

COC(=O)[C@H]1[C@@H](O)[C@@]2(O)c3c(OC)cc(O[C@@H]4O[C@@H]([C@H](O)CO)CO[C@H]4OC)cc3O[C@@]2(c2ccc(OC)cc2)[C@@H]1c1ccccc1
inhibition (cap-dependent translation, inhibitor, firefly luciferase bicistronic reporter; Krebs-2 cell extract; concentration not given): inhibited

Cc1cc(Nc2ccc(S(F)(F)(F)(F)F)cc2)n2nc(C(C)(F)F)nc2n1
patients with any adverse event (Plasmodium vivax; human Plasmodium vivax malaria patients; oral, 400 mg): 80%

Fc1ccc(-c2ccc3c(n2)[nH]c2ccncc23)c(F)n1
Ki (MAPT PSP brain aggregates; binding; PSP human brain tissue; added: [3H]PI-2620): 0.0346 µM

CC[C@H]1[C@@H](O)[C@@H]2[C@H](CC[C@]3(C)[C@@H]([C@H](C)CCNC(=O)NS(=O)(=O)c4ccc(C(C)(C)C)cc4)CC[C@@H]23)[C@@]2(C)CC[C@@H](O)C[C@@H]12
Cmax geometric mean (Cytochrome P450 3A4 (CYP3A4, Homo sapiens, UniProt P08684); human, plasma; 10 mg, day 1, compound alone): 29.6 ng/mL

Fc1cc(-c2ccc3c(n2)[nH]c2ccncc23)ccn1
Ki (Microtubule-associated protein tau, AD brain aggregates (MAPT, Homo sapiens, UniProt P10636); Alzheimer's disease brain homogenate; added: [3H]asyn-44): > 10 µM

CC[C@H]1OC(=O)[C@H](C)[C@@H](O[C@H]2C[C@@](C)(OC)[C@@H](O)[C@H](C)O2)[C@H](C)[C@@H](O[C@@H]2O[C@H](C)C[C@H](N(C)C)[C@H]2O)[C@](C)(O)C[C@@H](C)C(=O)[C@H](C)[C@@H](O)[C@]1(C)O
Ki (Alpha-1-acid glycoprotein 2; competitive inhibitor, ultrafiltration; 15 min, 37 °C, added: [3H]S-disopyramide): 24.5 µM

O=C(CCCCC1SC[C@@H]2NC(=O)N[C@H]12)NCCCN(CCCN1CCN(C2CCCCC2)CC1)CC(=O)Nc1ccc(C(=O)c2ccccc2)cc1 (stereo in doubt)
Ki (TMEM97; radioligand binding; RT-4 cell membranes; added: 10 nM [3H]-DTG, 100 nM (+)-pentazocine): 0.0865 µM

Cc1ccc(C(C)C)cc1O
Ki (uncharacterized protein; binding, competitive fluorescence displacement): > 50 µM

Fc1ncccc1-c1cc2[nH]c3ccncc3c2cn1
Ki (MAPT PSP brain aggregates; binding; PSP human brain tissue; added: [3H]PI-2620): < 0.01 µM and 0.0071 µM

O=C(c1ccc(CNCCCN2CCN(c3ccc(F)cc3)CC2)cc1)c1ccc([N+](=O)[O-])cc1
Ki (TMEM97; radioligand binding; RT-4 cell membranes; added: 10 nM [3H]-DTG, 100 nM (+)-pentazocine): 0.034 µM

C=C1CC/C=C(/C)CC[C@@H]2[C@@H]1CC2(C)C
Ki (uncharacterized protein; binding, competitive fluorescence displacement): > 50 µM

CC[C@@H]1[C@H](F)C(=O)N[C@@H]1COc1nccc2cc(C(N)=O)c(OC)cc12
inhibition (CAMKK2 (Homo sapiens, UniProt Q96RR4); ATP-site probe binding, ActivX profiling; THP-1 cell lysate; 0.04 mM, Lys2 site): 9.8%

CCCCCCCCC=O
Ki (uncharacterized protein; binding, competitive fluorescence displacement): > 50 µM

Clc1ccc(COC(Cn2ccnc2)c2ccc(Cl)cc2Cl)c(Cl)c1 (centres unmarked)
Ki (Alpha-1-acid glycoprotein 2; competitive inhibitor, ultrafiltration; 15 min, 37 °C, added: [3H]S-disopyramide): 19 µM

For quick reference, copied from above:
O=C(CCCCC1SC[C@@H]2NC(=O)N[C@H]12)NCCCN(CCCN1CCN(C2CCCCC2)CC1)CC(=O)Nc1ccc(C(=O)c2ccccc2)cc1 (stereo in doubt)
Ki (TMEM97; radioligand binding; RT-4 cell membranes; added: 10 nM [3H]-DTG, 100 nM (+)-pentazocine): 0.0865 µM

Cc1ccc(C(C)C)cc1O
Ki (uncharacterized protein; binding, competitive fluorescence displacement): > 50 µM

Fc1ncccc1-c1cc2[nH]c3ccncc3c2cn1
Ki (MAPT PSP brain aggregates; binding; PSP human brain tissue; added: [3H]PI-2620): < 0.01 µM and 0.0071 µM
